Results pooled from the literature.
“And” joins repeats or separate records; there may be more than shown. ± marks the error that the study gave.

| SMILES | test | system | setting | scale | quantity | value |
| --- | --- | --- | --- | --- | --- | --- |
| CCc1cc(C(=O)NC)c2nccc(N3CCc4c(cc(Cn5ccnc5)cc4-c4cn(C)nc4C(F)(F)F)C3=O)c2c1 |  | Sprague Dawley rats | oral, 100 mg/kg once daily, 7 days | relative to: vehicle | serum ALP change | -4.3% |
| COc1cc(NC(=O)CSc2nncn2C)cc(OC)c1OC |  | aqueous buffer | pH 7.4 |  | solubility | 1390 µg/mL |
| [18F]c1ccc(-c2ccc3c(c2)[nH]c2ccncc23)cn1 | ex vivo biodistribution | APP/PS1 mouse, AD model, liver | intravenous, 30 min |  | SUV | 2.59 ± 1.28 |
| Cc1cc(NC2CCN(C(=O)OC3CCN(C(=O)/C=C/CN(C)C)C3)CC2)n2ncc(C(C)C)c2n1 (stereo not drawn) |  | patients with advanced solid tumours | dose not given, QD arm, any grade |  | patients with Nausea | 28% |
| Cc1coc([C@H]2C[C@H]3[C@@H](CF)SC(N)=N[C@@]3(c3ccc(F)cc3F)CO2)n1 |  | male 129/SVE mouse, CSF | subcutaneous, 80 mg/kg, 9 h |  | CSF concentration | 1 nM |
| CNC(=O)c1ccc(-c2cnc3ncc(Cc4ccc5ncccc5c4)n3n2)cc1F | CTCAE v4.0, any causality | human cancer patients | oral, 600 mg twice daily, expansion cohort at RP2D |  | decreased appetite incidence (all grades) | 18% |
| COc1ccc2[nH]cc(CCNC(=O)Nc3ccc(Cl)c(Cl)c3)c2c1 |  | aqueous buffer | pH 7.4 |  | solubility | < 2.7 µg/mL |
| COc1cc2nccc(Oc3ccc(NC(=O)c4cc5c(n(-c6ccccc6)c4=O)CCCC5=O)nc3)c2cc1OC |  | relapsed or refractory AML | oral, 10 mg once daily |  | grade ≥3 Hyperglycaemia patients | 14.3% |
| C=CCN1CC(=O)N2[C@@H](Cc3ccc(O)cc3F)C(=O)N(Cc3cccc(N4CC(N5CCN(CC)CC5)C4)n3)C[C@@H]2N1C(=O)NCc1ccccc1 |  | advanced solid tumour patients | oral, 45 mg twice daily, grade ≥3, dose-escalation |  | treatment-related decreased appetite | 0% |
| CCOC(=O)N1C[C@@H](C2CCOCC2)N[C@@H](C2CC2)C1 | shake-flask, LC-HRMS | aqueous buffer | 16 h, pH 6.8 |  | solubility | > 750 µM |
| Cc1cccc(CNC(=O)c2cn(CCNC(=O)c3ccccc3Sc3c([N+](=O)[O-])ncn3C)c3cc4c(cc3c2=O)OC(F)(F)O4)n1 |  | Sprague-Dawley rat, male, whole blood | intravenous, 5 mg/kg of parent compound |  | MRT(0-inf) | 0.6 ± 0.14 h |
| CCCCC1=NC2(CCCC2)C(=O)N1Cc1ccc(-c2ccccc2S(=O)(=O)Nc2noc(C)c2C)c(COCC)c1 |  | healthy adult volunteers, plasma | oral, 800 mg, single dose, fed, crushed tablet |  | Tmax | 6.2 h |
| Cc1c([C@H]2COC[C@@H](c3ccc(C(C)(C)C)cc3)N2)cnn1-c1ccccc1 | shake-flask, LC-HRMS | aqueous buffer | 16 h, pH 6.8 |  | solubility | < 4 µM |
| CN(CCCN1CCN(C(=O)CN2CCN(CC(=O)[O-])CCN(CC(=O)[O-])CCN(CC(=O)[O-])CC2)CC1)c1ccc2nccc(C(=O)NCC(=O)N3CC(F)(F)C[C@H]3C#N)c2c1.[68Ga+3] |  | mice, HT-1080.hFAP and HT-1080 wild-type xenografts, lung | iv, 500 pmol, 4 h post injection |  | uptake | 0.2 ± 0.1 %IA/g |
| O=c1[nH]c(=O)n([C@H]2C[C@H](O)[C@@H](CO)O2)cc1CCCC[18F] |  | male CD-1 nu/nu mice, RG2 tumour, lung | intravenous, dose not given, 2 h |  | biodistribution | 0.27 ± 0.07 %ID/g |
| Cc1c(C(=O)O)ccc2c3n(nc12)[C@@H]1[C@H](C3)N(CC2CC2)[C@@]2(C(=O)Nc3cc(Cl)ccc32)[C@H]1c1cccc(Cl)c1F | phase Ia trial, measured: Dysgeusia | cancer patients | oral, dose not given, all patients all grades |  | adverse event incidence | 18.5% |
| CCOc1c([C@H](C)n2nc(C)c3c(N)ncnc32)cc(Cl)c(F)c1[C@@H]1CNC(=O)C1 | measured: QTcF above 500 ms | previously treated B-cell malignancy | oral, 5 mg once daily, baseline QTcF ≤450 ms |  | patients | 0% |
| C=CC(=O)Nc1cc(Nc2nccc(-c3cn(C)c4ccccc34)n2)c(OC)cc1N(C)CCN(C)C | storage stability | human plasma | 24 h, -80 °C, medium QC level |  | recovery | 103% |
| CCCOc1ccc(-c2ccc(C#N)cc2)cc1 |  | Sprague-Dawley rat, female, placenta | 1000 ng/mL in perfusate, 50 (unit not given), middle dose, mixture of 21 LCMs |  | placental accumulation | 164 ± 182 ng/g |
| O=C(N[C@H](Cc1c[nH]c2ccccc12)C(=O)Nc1ccncc1)c1ccc(-c2cc(C(F)(F)F)ccc2F)cc1F |  | Swiss Webster mouse, female, muscle | oral, 50 mg/kg, 2 h, 20% HPβCD vehicle |  | concentration | 310 nM |
| CCOC(=O)N1C[C@@H](c2cccc(Br)c2)N[C@@H](C(CC)CC)C1 | shake-flask, LC-HRMS | aqueous buffer | 16 h, pH 6.8 |  | solubility | < 4 µM |

| SMILES | test | system | setting | scale | quantity | value |
| --- | --- | --- | --- | --- | --- | --- |
| Cc1ccc(S(=O)(=O)n2cc3c4c2C(=O)C(NCc2ccc(Cl)cc2)=CC4=NCC3)cc1 |  | Sprague-Dawley rat, plasma | intravenous, 5 mg/kg, two-compartment model |  | central compartment volume | 0.007 L/kg and 0.005 L/kg and 0.003 L/kg |
| CNCCOC12CC3(C)CC(C)(CC(Cn4ncc(-c5ccc(N6CCc7cccc(C(=O)Nc8nc9ccccc9s8)c7C6)nc5C(=O)O)c4C)(C3)C1)C2 |  | beagle dog, male, anaesthetised | intravenous bolus, 0.03 mg/kg, 60 min | relative to: baseline | heart rate change | -1% |
| CCNC(=O)[C@@H]1CCCN1C(=O)[C@H](CCCNC(=N)N)NC(=O)[C@H](CC(C)C)NC(=O)[C@@H](CC(C)C)NC(=O)[C@H](Cc1ccc(O)cc1)NC(=O)[C@H](CO)NC(=O)[C@H](Cc1c[nH]c2ccccc12)NC(=O)[C@H](Cc1c[nH]cn1)NC(=O)[C@@H]1CCC(=O)N1 |  | healthy female volunteers | dose not given, all treatment groups combined |  | increased libido incidence | 21% |
| CCN1CCN(Cc2ccc(NC(=O)c3ccc(C)c(NC(=O)c4cncc(-c5cccs5)c4)c3)cc2C(F)(F)F)CC1 | LC-MS/MS | C57BL/6 mouse, plasma | intraperitoneal, 30 mg/kg single dose, 1 h |  | plasma concentration | 399 ng/mL and 620 ng/mL and 586 ng/mL |
| CNC(=O)c1cc(Oc2ccc(NC(=O)Nc3cc(C(C)(C)C)nn3-c3ccc4ncccc4c3)c(F)c2)ccn1 | measured: worst grade 1 | human | oral, dose not given, cycles 1 and 2, Low Cmax subgroup |  | patients with visual abnormality AE | 18% |
| CO[C@H]1C[C@@H]2CC[C@@H](C)[C@@](O)(O2)C(=O)C(=O)N2CCCC[C@H]2C(=O)O[C@H]([C@H](C)C[C@@H]2CC[C@@H](O)[C@H](OC)C2)CC(=O)[C@H](C)/C=C(\C)[C@@H](O)[C@@H](OC)C(=O)[C@H](C)C[C@H](C)/C=C/C=C/C=C/1C |  | healthy adult horses | intravenous, 0.06 mg/kg, 48 h |  | heart rate | 34.3 ± 6.6 beats/min |
| N#Cc1ccc2c(c1)[C@H]1CCCN(C(=O)c3ccc4[nH]cnc4c3)[C@H]1C2 |  | human | 10 mg, day 15 |  | maximum ACTH level | 24.4 pmol/L |
| O=C(Nc1nc2cccc(-c3ccc(CN4CCS(=O)(=O)CC4)cc3)n2n1)C1CC1 | measured: ear and labyrinth disorders | human rheumatoid arthritis patients | oral, 200 mg once daily, 4 weeks, regardless of relatedness |  | treatment-emergent adverse events | 0% |
| COc1ccc2c(c1)CN(C(=O)CCN1CCC(Cc3ccccc3)CC1)CC[S@@+]2[O-] | telemetry | conscious male beagle dogs | intravenous, 4 mg/kg, 0.5 h |  | QRS duration | 34 ± 11 ms |
| COc1ccc([C@@H](O)c2cc(-c3ncnc4cc(N5CCOCC5)ccc34)c(F)cc2Cl)nn1 |  | locally advanced rectal cancer | all dose levels overall, added: capecitabine and radiotherapy |  | TEAE, lymphocyte count decreased | 37% |
| CCOC(=O)N1C[C@@H](C2CCCCC2)N[C@@H](c2ccc(C(F)(F)F)cc2)C1 | shake-flask, LC-HRMS | aqueous buffer | 16 h, pH 6.8 |  | solubility | < 4 µM |
| Cl.[2H]C([2H])([2H])CC(=O)c1cnc(NC(=O)C2CC2)cc1Nc1cccc(-c2ncn(C([2H])([2H])[2H])n2)c1OC | geometric mean | human | oral, 40 mg twice daily, day 7, fed, liquid, multiple dose |  | AUC(0-inf) | 6040 ng·h/mL |
| C[Si](C)(C)O[Si](C)(C)C |  | 1-octanol/air | 25 °C |  | log KOA | 2.89 |
| CC(C)c1nc(N(C)S(C)(=O)=O)nc(-c2ccc(F)cc2)c1/C=C/[C@@H](O)C[C@@H](O)CC(=O)O | measured: nausea | healthy men | oral, dose not given, 8 days, treatment-emergent, crossover trial |  | subjects with adverse event | 0% |
| C=CCOc1ccc([C@H]2CN(C(=O)OCC)C[C@@H](c3cc(O)c(O)c(Cl)c3)N2)cc1 | shake-flask, LC-HRMS | aqueous buffer | 16 h, pH 6.8 |  | solubility | < 4 µM |
| CCN1/C(=C/C(C)=O)Sc2ccc(F)cc21 |  | cynomolgus monkey | oral, 30 mg/kg, 2 h post-dose |  | QT interval | 242 ± 27 ms |
| NC1(C(=O)N[C@@H](CCO)c2ccc(Cl)cc2)CCN(c2nc[nH]c3nccc2-3)CC1 |  | metastatic CRPC patients | 400 mg b.i.d., grade 3 to 4, treatment-related, added: enzalutamide 160 mg daily |  | incidence of Dyspepsia | 0% |
| O=C(O)CCC(=O)O.[2H]C([2H])([2H])Oc1cc(C)c2[nH]ccc2c1CN1CC[C@@H](C2CC2)C[C@H]1c1ccc(C(=O)O)cc1 | multiple ascending dose | healthy Chinese subjects | 100 mg twice daily |  | subjects with TEAE Constipation | 12.5% |
| Cn1cc([C@H]2COC[C@@H](c3ccc(C#N)cc3)N2)cn1 | shake-flask, LC-HRMS | aqueous buffer | 16 h, pH 6.8 |  | solubility | > 750 µM |
| O=c1[nH]c(=O)n([C@@H]2O[C@H](CO)[C@@H](O)[C@@H]2F)cc1CCCCC[18F] |  | nude mice, RG2 tumour, bone | intravenous, dose not given, 2 h |  | biodistribution | 1.57 ± 0.41 %ID/g |
| Cc1ccc([C@@H]2O[C@H](CO)[C@@H](O)[C@H](O)[C@H]2O)cc1Cc1ccc(-c2ccc(F)cc2)s1 |  | Japanese type 2 diabetes patients | 400 mg, day 4, 24 h urine collection | relative to: baseline | urinary chloride excretion change | -21.8 mEq |

Repeated from above:
| SMILES | test | system | setting | scale | quantity | value |
| --- | --- | --- | --- | --- | --- | --- |
| CCOC(=O)N1C[C@@H](C2CCOCC2)N[C@@H](C2CC2)C1 | shake-flask, LC-HRMS | aqueous buffer | 16 h, pH 6.8 |  | solubility | > 750 µM |
| Cc1cccc(CNC(=O)c2cn(CCNC(=O)c3ccccc3Sc3c([N+](=O)[O-])ncn3C)c3cc4c(cc3c2=O)OC(F)(F)O4)n1 |  | Sprague-Dawley rat, male, whole blood | intravenous, 5 mg/kg of parent compound |  | MRT(0-inf) | 0.6 ± 0.14 h |
| CCCCC1=NC2(CCCC2)C(=O)N1Cc1ccc(-c2ccccc2S(=O)(=O)Nc2noc(C)c2C)c(COCC)c1 |  | healthy adult volunteers, plasma | oral, 800 mg, single dose, fed, crushed tablet |  | Tmax | 6.2 h |
| Cc1c([C@H]2COC[C@@H](c3ccc(C(C)(C)C)cc3)N2)cnn1-c1ccccc1 | shake-flask, LC-HRMS | aqueous buffer | 16 h, pH 6.8 |  | solubility | < 4 µM |
| CN(CCCN1CCN(C(=O)CN2CCN(CC(=O)[O-])CCN(CC(=O)[O-])CCN(CC(=O)[O-])CC2)CC1)c1ccc2nccc(C(=O)NCC(=O)N3CC(F)(F)C[C@H]3C#N)c2c1.[68Ga+3] |  | mice, HT-1080.hFAP and HT-1080 wild-type xenografts, lung | iv, 500 pmol, 4 h post injection |  | uptake | 0.2 ± 0.1 %IA/g |
| O=c1[nH]c(=O)n([C@H]2C[C@H](O)[C@@H](CO)O2)cc1CCCC[18F] |  | male CD-1 nu/nu mice, RG2 tumour, lung | intravenous, dose not given, 2 h |  | biodistribution | 0.27 ± 0.07 %ID/g |
